# Results gathered from unrelated publications.
# Every numbered part comes from another study and shows a few of its results, in no order.
# UniProt Q16513, sequence (whole entry, looked up): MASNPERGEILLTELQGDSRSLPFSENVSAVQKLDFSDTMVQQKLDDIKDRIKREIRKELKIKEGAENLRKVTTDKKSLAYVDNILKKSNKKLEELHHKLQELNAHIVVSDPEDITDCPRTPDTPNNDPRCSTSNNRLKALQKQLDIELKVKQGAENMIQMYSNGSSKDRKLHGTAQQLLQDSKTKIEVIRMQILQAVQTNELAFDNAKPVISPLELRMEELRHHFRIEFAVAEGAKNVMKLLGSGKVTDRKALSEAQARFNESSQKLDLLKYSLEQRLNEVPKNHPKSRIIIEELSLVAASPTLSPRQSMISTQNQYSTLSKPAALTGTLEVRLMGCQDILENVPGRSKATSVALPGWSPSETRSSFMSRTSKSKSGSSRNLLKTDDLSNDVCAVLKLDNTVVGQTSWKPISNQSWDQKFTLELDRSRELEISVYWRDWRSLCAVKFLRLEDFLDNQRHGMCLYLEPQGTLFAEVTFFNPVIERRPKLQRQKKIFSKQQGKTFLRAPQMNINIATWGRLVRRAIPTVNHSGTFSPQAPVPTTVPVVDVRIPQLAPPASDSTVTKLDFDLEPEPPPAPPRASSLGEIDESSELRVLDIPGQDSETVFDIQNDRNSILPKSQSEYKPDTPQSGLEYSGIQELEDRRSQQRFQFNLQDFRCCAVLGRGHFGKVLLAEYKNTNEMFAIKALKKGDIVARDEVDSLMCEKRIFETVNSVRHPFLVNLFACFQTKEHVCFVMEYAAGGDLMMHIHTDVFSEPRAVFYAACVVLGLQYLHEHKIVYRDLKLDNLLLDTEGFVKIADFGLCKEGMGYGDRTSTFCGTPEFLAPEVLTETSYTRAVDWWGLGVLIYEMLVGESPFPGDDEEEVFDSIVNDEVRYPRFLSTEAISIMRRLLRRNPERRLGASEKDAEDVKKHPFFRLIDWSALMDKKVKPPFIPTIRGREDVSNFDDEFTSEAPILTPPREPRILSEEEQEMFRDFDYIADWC
# UniProt Q09013, sequence (whole entry, looked up): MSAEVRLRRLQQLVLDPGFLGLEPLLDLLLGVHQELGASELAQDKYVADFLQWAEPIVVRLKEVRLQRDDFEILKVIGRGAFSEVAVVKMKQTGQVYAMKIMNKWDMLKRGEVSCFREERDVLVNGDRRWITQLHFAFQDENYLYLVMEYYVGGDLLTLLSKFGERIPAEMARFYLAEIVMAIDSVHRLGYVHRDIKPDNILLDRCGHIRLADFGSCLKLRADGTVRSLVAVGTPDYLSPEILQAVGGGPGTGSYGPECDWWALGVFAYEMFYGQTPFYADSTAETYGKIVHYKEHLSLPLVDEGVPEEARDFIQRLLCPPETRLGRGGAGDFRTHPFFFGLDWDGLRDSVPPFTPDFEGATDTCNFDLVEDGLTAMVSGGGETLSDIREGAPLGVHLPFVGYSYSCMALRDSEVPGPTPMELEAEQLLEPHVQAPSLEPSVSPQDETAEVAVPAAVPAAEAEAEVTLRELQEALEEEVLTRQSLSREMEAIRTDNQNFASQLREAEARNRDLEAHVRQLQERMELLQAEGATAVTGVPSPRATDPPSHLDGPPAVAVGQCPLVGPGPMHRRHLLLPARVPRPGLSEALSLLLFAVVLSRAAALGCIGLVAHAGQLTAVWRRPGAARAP
# UniProt P08922, sequence (whole entry, looked up): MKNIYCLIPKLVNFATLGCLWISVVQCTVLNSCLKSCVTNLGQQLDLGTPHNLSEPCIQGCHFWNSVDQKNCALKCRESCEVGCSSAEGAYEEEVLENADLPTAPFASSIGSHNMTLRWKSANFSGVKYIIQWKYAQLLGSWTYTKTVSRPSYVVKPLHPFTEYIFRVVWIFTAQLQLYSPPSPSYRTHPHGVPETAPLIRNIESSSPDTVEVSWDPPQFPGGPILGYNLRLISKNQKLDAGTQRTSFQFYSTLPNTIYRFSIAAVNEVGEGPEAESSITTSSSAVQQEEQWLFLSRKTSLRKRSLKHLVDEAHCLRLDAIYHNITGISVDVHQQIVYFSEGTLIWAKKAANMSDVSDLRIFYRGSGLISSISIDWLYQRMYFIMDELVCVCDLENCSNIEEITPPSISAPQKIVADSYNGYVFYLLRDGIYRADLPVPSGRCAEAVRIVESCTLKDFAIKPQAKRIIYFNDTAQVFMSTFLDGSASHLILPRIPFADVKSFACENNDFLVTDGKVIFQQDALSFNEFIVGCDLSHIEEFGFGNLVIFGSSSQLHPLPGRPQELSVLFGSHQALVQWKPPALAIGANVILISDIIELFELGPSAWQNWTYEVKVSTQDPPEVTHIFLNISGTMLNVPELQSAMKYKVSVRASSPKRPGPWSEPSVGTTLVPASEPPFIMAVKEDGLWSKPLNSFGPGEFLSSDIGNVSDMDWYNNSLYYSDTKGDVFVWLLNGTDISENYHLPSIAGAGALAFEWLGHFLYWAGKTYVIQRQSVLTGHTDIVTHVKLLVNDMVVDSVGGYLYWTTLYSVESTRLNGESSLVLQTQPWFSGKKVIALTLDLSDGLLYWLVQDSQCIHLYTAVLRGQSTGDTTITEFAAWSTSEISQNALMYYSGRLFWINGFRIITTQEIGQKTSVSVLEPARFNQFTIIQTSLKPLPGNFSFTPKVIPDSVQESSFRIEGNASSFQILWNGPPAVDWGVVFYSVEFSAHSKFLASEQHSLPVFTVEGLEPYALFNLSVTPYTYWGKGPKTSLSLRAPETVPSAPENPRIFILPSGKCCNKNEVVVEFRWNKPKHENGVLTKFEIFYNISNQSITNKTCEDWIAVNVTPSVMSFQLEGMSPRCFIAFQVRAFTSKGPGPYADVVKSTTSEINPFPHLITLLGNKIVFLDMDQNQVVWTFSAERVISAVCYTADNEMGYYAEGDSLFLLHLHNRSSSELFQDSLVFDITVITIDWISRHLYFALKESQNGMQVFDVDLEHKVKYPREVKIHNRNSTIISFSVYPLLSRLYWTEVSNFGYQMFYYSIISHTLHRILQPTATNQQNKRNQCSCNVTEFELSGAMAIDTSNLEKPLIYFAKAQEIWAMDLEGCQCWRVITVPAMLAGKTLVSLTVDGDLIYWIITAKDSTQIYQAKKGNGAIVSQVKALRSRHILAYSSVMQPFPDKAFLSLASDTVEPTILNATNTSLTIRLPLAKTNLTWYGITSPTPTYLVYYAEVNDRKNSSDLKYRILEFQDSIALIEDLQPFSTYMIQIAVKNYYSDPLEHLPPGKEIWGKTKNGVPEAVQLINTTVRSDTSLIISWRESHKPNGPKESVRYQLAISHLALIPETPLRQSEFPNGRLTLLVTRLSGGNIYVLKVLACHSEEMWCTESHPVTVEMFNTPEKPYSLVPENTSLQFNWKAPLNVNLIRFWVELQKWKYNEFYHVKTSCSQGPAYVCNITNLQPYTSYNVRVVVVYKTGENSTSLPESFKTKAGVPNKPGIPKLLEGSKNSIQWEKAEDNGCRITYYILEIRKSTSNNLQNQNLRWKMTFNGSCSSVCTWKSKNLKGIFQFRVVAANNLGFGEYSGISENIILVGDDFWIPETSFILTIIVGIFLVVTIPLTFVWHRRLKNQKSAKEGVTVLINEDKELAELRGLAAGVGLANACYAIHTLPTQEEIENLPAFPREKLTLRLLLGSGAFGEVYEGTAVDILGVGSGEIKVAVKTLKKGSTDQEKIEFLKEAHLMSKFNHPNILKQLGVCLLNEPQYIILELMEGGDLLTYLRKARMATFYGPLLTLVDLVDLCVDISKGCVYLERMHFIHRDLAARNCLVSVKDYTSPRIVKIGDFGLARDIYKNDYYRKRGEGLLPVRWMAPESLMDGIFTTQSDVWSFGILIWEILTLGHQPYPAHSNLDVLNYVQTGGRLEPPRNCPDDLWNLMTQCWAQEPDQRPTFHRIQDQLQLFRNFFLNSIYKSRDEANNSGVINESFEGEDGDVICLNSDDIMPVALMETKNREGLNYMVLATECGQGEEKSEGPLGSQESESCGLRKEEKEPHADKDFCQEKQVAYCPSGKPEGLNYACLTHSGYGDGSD
# UniProt P25098, sequence (whole entry, looked up): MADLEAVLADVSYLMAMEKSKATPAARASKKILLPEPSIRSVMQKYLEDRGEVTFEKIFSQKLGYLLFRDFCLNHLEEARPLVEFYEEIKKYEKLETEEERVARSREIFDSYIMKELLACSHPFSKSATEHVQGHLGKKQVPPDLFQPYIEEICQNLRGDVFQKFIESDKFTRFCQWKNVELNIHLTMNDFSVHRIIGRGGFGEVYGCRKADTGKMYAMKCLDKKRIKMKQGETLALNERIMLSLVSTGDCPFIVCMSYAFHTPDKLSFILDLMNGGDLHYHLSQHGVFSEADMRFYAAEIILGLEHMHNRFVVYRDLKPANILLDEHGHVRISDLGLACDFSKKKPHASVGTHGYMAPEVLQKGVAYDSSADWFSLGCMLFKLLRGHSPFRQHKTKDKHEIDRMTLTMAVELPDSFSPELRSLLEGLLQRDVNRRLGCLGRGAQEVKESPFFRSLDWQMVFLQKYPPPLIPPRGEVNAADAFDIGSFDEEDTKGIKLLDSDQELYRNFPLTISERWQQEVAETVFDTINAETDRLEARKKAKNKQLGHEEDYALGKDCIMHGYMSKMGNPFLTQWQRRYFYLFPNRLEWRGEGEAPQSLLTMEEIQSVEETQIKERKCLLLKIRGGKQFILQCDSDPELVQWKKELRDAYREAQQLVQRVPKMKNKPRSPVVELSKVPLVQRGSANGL
# UniProt O14965, sequence (whole entry, looked up): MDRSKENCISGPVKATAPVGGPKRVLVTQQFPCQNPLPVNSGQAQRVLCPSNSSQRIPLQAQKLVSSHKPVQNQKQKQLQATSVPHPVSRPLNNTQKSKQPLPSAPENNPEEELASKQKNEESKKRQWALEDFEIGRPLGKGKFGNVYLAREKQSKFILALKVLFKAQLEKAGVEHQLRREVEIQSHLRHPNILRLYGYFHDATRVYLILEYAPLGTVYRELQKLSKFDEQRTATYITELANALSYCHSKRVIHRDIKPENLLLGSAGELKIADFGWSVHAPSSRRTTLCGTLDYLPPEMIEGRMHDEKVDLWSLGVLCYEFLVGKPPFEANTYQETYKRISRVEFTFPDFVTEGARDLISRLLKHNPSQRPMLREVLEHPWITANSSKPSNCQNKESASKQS

# Study 1 — effect on: enzyme activity; action: inhibitor; tested at: 0.5 µM; reference: control
# SMILES: CS(=O)(=O)CCNCc1ccc(-c2ccc3ncnc(Nc4ccc(OCc5cccc(F)c5)c(Cl)c4)c3c2)o1
target,remaining activity [%]
"NT-3 growth factor receptor (NTRK3, Homo sapiens, UniProt Q16288)",103
"Myotonin-protein kinase (DMPK, Homo sapiens, UniProt Q09013)",94.7
"Mitogen-activated protein kinase kinase kinase 2 (MAP3K2, Homo sapiens, UniProt Q9Y2U5)",123
"Homeodomain-interacting protein kinase 3 (HIPK3, Homo sapiens, UniProt Q9H422)",99.1
"Mitogen-activated protein kinase 10 (MAPK10, Homo sapiens, UniProt P53779)",100
"G protein-coupled receptor kinase 5 (GRK5, Homo sapiens, UniProt P34947)",97.2
"Serine/threonine-protein kinase N2 (PKN2, Homo sapiens, UniProt Q16513)",92
"Proto-oncogene tyrosine-protein kinase ROS (ROS1, Homo sapiens, UniProt P08922)",107
"Aurora kinase A (AURKA, Homo sapiens, UniProt O14965)",81.5
"Protein-tyrosine kinase 2-beta (PTK2B, Homo sapiens, UniProt Q14289)",101
"Casein kinase II subunit alpha' (CSNK2A2, Homo sapiens, UniProt P19784)",101
"Mitogen-activated protein kinase kinase kinase 8 (MAP3K8, Homo sapiens, UniProt P41279)",99.7
"Dual specificity tyrosine-phosphorylation-regulated kinase 4 (DYRK4, Homo sapiens, UniProt Q9NR20)",103
"Serine/threonine-protein kinase D1 (PRKD1, Homo sapiens, UniProt Q15139)",99.4
"Cyclin-dependent kinase 7 (CDK7, Homo sapiens, UniProt P50613)",109

# Study 2 — effect on: cell-free assay; technique: competition with immobilised ligand; tested at: 0.1 µM
# Compound: CC(C)CC(=O)N1CCc2nc(-c3ccc(Br)cc3)nc(N(C)Cc3ccccc3)c2C1
target,remaining binding [%]
"Mitogen-activated protein kinase kinase kinase kinase 1 (MAP4K1, Homo sapiens, UniProt Q92918)",93
"Focal adhesion kinase 1 (PTK2, Homo sapiens, UniProt Q05397)",92
"Cyclin-dependent kinase-like 1 (CDKL1, Homo sapiens, UniProt Q00532)",63
"Cyclin-dependent kinase 18 (CDK18, Homo sapiens, UniProt Q07002)",100
"Serine/threonine-protein kinase Sgk2 (SGK2, Homo sapiens, UniProt Q9HBY8)",94
"Beta-adrenergic receptor kinase 1 (GRK2, Homo sapiens, UniProt P25098)",100

# Study 3 — organism: Sarcocystis neurona; effect on: parasite growth; tested at: 10 µM; reference: untreated
Structure (SMILES),log2 fold change
NS(=O)(=O)c1cc2c(cc1C(F)(F)F)NC(Cc1ccccc1)NS2(=O)=O (stereo not drawn),0.28
Nc1ncn([C@@H]2O[C@H](CO)[C@@H](O)[C@H]2O)c(=O)n1,0.33
CN1C(=O)CC[C@H]1c1cccnc1,0.3
C[C@]12CC[C@@H]3c4ccc(O)cc4CC[C@H]3[C@@H]1CC[C@@H]2O,0.5
CN(CCO)CC(O)Cn1cnc2c1c(=O)n(C)c(=O)n2C.O=C(O)c1cccnc1 (stereo not drawn),0.25
CCCN[C@H]1CCc2nc(N)sc2C1.Cl,0.46
CC1=C(C/C=C(\C)CCC[C@H](C)CCC[C@H](C)CCCC(C)C)C(=O)c2ccccc2C1=O,0.31

# Other studies, line by line — cell line: Caco-2; tested at: 10 µM; time: 120 min; setting: apical to basolateral
Structure (SMILES),recovery [%]
CC(C)NCC(O)COc1cccc2ccccc12 (stereo not drawn),95.1
C[C@H]1O[C@@H](O[C@H]2[C@@H](O)C[C@H](O[C@H]3[C@@H](O)C[C@H](O[C@H]4CC[C@@]5(C)[C@H](CC[C@@H]6[C@@H]5C[C@@H](O)[C@]5(C)[C@@H](C7=CC(=O)OC7)CC[C@]65O)C4)O[C@@H]3C)O[C@@H]2C)C[C@H](O)[C@@H]1O,92.3

# Repeated from above (study 2):
target,remaining binding [%]
"Focal adhesion kinase 1 (PTK2, Homo sapiens, UniProt Q05397)",92
"Mitogen-activated protein kinase kinase kinase kinase 1 (MAP4K1, Homo sapiens, UniProt Q92918)",93
"Beta-adrenergic receptor kinase 1 (GRK2, Homo sapiens, UniProt P25098)",100
"Cyclin-dependent kinase-like 1 (CDKL1, Homo sapiens, UniProt Q00532)",63
